Assay results of several laboratories.
Lines come from different studies, so protocols differ. ± marks the error that the study gave. Converted amounts (≈) assume the structure as drawn.
Organism: Pseudomonas aeruginosa

| Molecule | test | test system | setting | measurement | result |
| --- | --- | --- | --- | --- | --- |
| NC(=S)n1nc(-c2ccccc2)cc1O | broth microdilution, agar subculture | ATCC 25619 | 24 h | MBC | > 1000 mg/L |
| C[C@H](NC(=O)CNC(=O)[C@@H](NC(=O)[C@H](CO)NC(=O)[C@H](CC(=O)O)NC(=O)[C@H](CO)NC(=O)[C@H](CO)NC(=O)[C@H](C)NC(=O)[C@H](CC(=O)O)NC(=O)[C@@H](N)CCC(=O)O)[C@@H](C)O)C(=O)N[C@@H](CC(=O)O)C(=O)N1CCC[C@H]1C(=O)N[C@@H](C)C(=O)N[C@@H](CCC(N)=O)C(=O)N[C@@H](CCC(=O)O)C(=O)N[C@@H](C)C(=O)NCC(=O)N[C@H](C(=O)N[C@@H](CO)C(=O)N[C@@H](CCCCN)C(=O)N1CCC[C@H]1C(=O)N[C@@H](CC(N)=O)C(=O)N[C@@H](CCC(=O)O)C(=O)N[C@@H](CCC(=O)O)C(N)=O)[C@@H](C)O |  | PA14, iron-depleted | 10, 25 or 100 µM, 45 min, 35 °C, with: exogenous Fe2+ | iron uptake | no effect |
| CC[C@@H](C)[C@@H](NC(=O)[C@@H](C)NC(=O)[C@@H](CCCNC(=N)N)NC(=O)[C@@H](Cc1c[nH]c2ccccc12)NC(=O)[C@@H](CCC(N)=O)NC(=O)[C@H](N)C(C)C)C(=O)N[C@H](CCCNC(=N)N)C(=O)N[C@@H](C(=O)N[C@H](CCCNC(=N)N)C(=O)N[C@@H](C(=O)N[C@@H](C(=O)N[C@H](CCCNC(=N)N)C(N)=O)[C@H](C)CC)C(C)C)C(C)C |  |  | with: serine hydroxamate 500 µM | concentration abolishing (p)ppGpp accumulation | 1 µg/mL |
| CCN1CCN(C(=O)N[C@@H](C(=O)N[C@@H]2C(=O)N3[C@@H]2SC(C)(C)[C@@H]3C(=O)O)c2ccccc2)C(=O)C1=O | checkerboard broth microdilution | clinical isolate 8-97 | with: magainin II | FIC index | 0.187 |
| O=C(O)CSc1nnc(C23CC4CC(CC(C4)C2)C3)n1-c1ccccc1 |  | IFO 3448 | 200 µg/disc, 24 h, 37 °C | inhibition zone diameter | < 10 mm |
| GWGSFFKKAAHVGKHVGKAALTHYL-NH2 (C-amide) | bacterial growth, broth microdilution | peptide, PAO1, Mueller-Hinton broth | overnight, 37 °C | MIC50 | 1.65 ± 0.87 mg/L |
| Cc1ccc(S(=O)(=O)Oc2cccc(C(C)C)cc2=O)cc1 | microbial growth, broth dilution | ATCC27853 |  | MIC80 | > 100 µM |
| colistin | checkerboard titration | ATCC 27853 | with: ranalexin | FIC index | 0.25 |
| Cc1cc(C)n(C(N)=S)n1.Cc1ccc(C(C)C)cc1.[Cl][Ru][Cl] | broth microdilution, agar subculture | ATCC 25619 |  | MBC | > 1000 mg/L |
| CC1(C)S[C@@H]2[C@H](NC(=O)[C@H](N)c3ccccc3)C(=O)N2[C@H]1C(=O)O |  | IFO 3448 | 100 µg/disc, 24 h | inhibition zone diameter | 16 mm |
| O=C(Nc1ccccc1F)c1ccccc1O | microbial growth, broth dilution | ATCC27853 |  | MIC | > 64 mg/L |
| CC[C@H]1OC(=O)[C@H](C)[C@@H](O[C@H]2C[C@@](C)(OC)[C@@H](O)[C@H](C)O2)[C@H](C)[C@@H](O[C@@H]2O[C@H](C)C[C@H](N(C)C)[C@H]2O)[C@](C)(O)C[C@@H](C)C(=O)[C@H](C)[C@@H](O)[C@]1(C)O |  | hospitalized pneumonia patients, clinical isolates | Fine score 70 or more | susceptible isolates | 0% |
| CO/N=C(\C(=O)N[C@@H]1C(=O)N2C(C(=O)O)=C(CSc3nc(=O)c(=O)[nH]n3C)CS[C@H]12)c1csc(N)n1 | checkerboard broth microdilution | clinical isolate 17-99 | with: ranalexin | FIC index | 1.25 |
| CC(C)C[C@H](NC(=O)CNC(=O)[C@H](C)NC(=O)c1ccc(S[C@@H]2O[C@H](CO)[C@H](O)[C@H](O)[C@H]2O)cc1)C(=O)N[C@@H](C)C(=O)N[C@H]1CCN(c2cc3c(cc2F)c(=O)c(C(=O)O)cn3C2CC2)C1 | broth microdilution | PA14, culture supernatant in PBS | 10% supernatant, pre-incubation under 10 min | MIC | 0.78 to 1.56 µM |
| CC[C@H](C)[C@H](NC(=O)CNC(=O)[C@H](CCC(=O)O)NC(=O)[C@H](CO)NC(=O)[C@@H](NC(=O)[C@H](CCCNC(=N)N)NC(=O)[C@H](CCCCN)NC(=O)[C@H](CCCCN)NC(=O)[C@H](C)NC(=O)[C@H](CO)NC(=O)[C@H](CC(N)=O)NC(=O)[C@H](CCC(=O)O)NC(=O)[C@H](CC(C)C)NC(=O)[C@H](CCCCN)NC(=O)[C@H](CCCCN)NC(=O)[C@H](C)NC(=O)[C@@H](NC(=O)[C@H](CCCCN)NC(=O)[C@H](CO)NC(=O)[C@H](CC(C)C)NC(=O)[C@H](Cc1c[nH]c2ccccc12)NC(=O)[C@@H](N)CO)[C@@H](C)O)[C@@H](C)CC)C(=O)N[C@@H](C)C(=O)N[C@H](C(=O)N[C@@H](C)C(=O)N[C@H](C(=O)N[C@@H](CCC(N)=O)C(=O)NCC(=O)NCC(=O)N1CCC[C@H]1C(=O)N[C@@H](CCCNC(=N)N)C(=O)O)[C@@H](C)CC)[C@@H](C)CC | broth microdilution |  | 18 h, 10 clinical isolates | MIC90 | 16 mg/L (≈ 4.79 µM) |
| VQWRAIRVRVIR | biofilm formation | peptide, PAO1 | 24 h, 37 °C | MBIC | 32 µg/mL |
| CC[C@H]1OC(=O)[C@H](C)[C@@H](O[C@H]2C[C@@](C)(OC)[C@@H](O)[C@H](C)O2)[C@H](C)[C@@H](O[C@@H]2O[C@H](C)C[C@H](N(C)C)[C@H]2O)[C@](C)(OC)C[C@@H](C)C(=O)[C@H](C)[C@@H](O)[C@]1(C)O | checkerboard broth microdilution | clinical isolate 8-97 | with: magainin II | FIC index | 1.5 |
| O=C(Nc1ccc(F)cc1[N+](=O)[O-])c1ccccc1O | microbial growth, broth dilution | ATCC27853 |  | MIC | > 64 mg/L |
| CC(C)(O/N=C(\C(=O)N[C@@H]1C(=O)N2C(C(=O)[O-])=C(C[n+]3ccccc3)CS[C@H]12)c1csc(N)n1)C(=O)O | checkerboard broth microdilution | clinical isolate 17-99 | with: ranalexin | FIC index | 1 |
| COc1cc(-c2oc3cc(O)cc(O)c3c(=O)c2O)ccc1O | microbial growth | ATCC15692 PAO1 | 11.1 µM | inhibition | > 50% |
| CC(C)C[C@H](NC(=O)CNC(=O)[C@H](C)NC(=O)c1ccc(S(=O)(=O)NC[C@H]2O[C@@H](C)[C@@H](O)[C@@H](O)[C@@H]2O)cc1)C(=O)N[C@@H](C)C(=O)NC[C@@H]1CCN(c2cc3c(cc2F)c(=O)c(C(=O)O)cn3C2CC2)C1 | broth microdilution | PA14, P. aeruginosa supernatant in PBS | 10% supernatant, 3 h preincubation | MIC | 1.56 to 3.13 µM |
| C[C@@H](O)[C@H]1C(=O)N2C(C(=O)O)=C(S[C@@H]3CN[C@H](C(=O)N(C)C)C3)[C@H](C)[C@H]12 | checkerboard broth microdilution | clinical isolate 17-99 | with: ranalexin | FIC index | 0.75 |
| O=C(Nc1ccc(F)cc1)c1ccccc1O | microbial growth, broth dilution | ATCC27853 |  | MIC | > 64 mg/L |
| Polymyxin B |  | PAO1 | 32 µg/mL, 24 h, 37 °C | biofilm dispersal | 100% |
| CC(=O)N[C@@H](C)C(=O)N[C@@H](CCC(N)=O)C(=O)N[C@@H](CCCCN)C(=O)N[C@@H](CC(C)C)C(=O)N[C@@H](CC(C)C)C(=O)N[C@@H](CCCCN)C(=O)N[C@@H](CCCCN)C(=O)N[C@@H](Cc1ccccc1)C(=O)N[C@@H](CO)C(=O)N[C@@H](CC(C)C)C(=O)N[C@@H](CC(C)C)C(=O)N[C@@H](CCCCN)C(=O)N1CCC[C@H]1C(=O)N[C@@H](Cc1c[nH]c2ccccc12)C(=O)N[C@@H](C)C(=O)O | spermidine uptake | PA14 | 10 µM, 45 min pretreatment, 35 °C, with: [14C]spermidine, 15 min | inhibition | 54% |
| NS(=O)(=O)c1ccc(NC2=NC(=O)/C(=C\c3ccc(O)cc3)S2)cc1 | microbial growth | ATCC10145 | 50 µg/mL, 24 h | inhibition | 18.6% |
| CN(C)CCSc1nnc(C23CC4CC(CC(C4)C2)C3)n1C |  | IFO 3448 | 200 µg/disc, 24 h, 37 °C | inhibition zone diameter | < 10 mm |
| C[C@H]1c2cccc(O)c2C(=O)C2=C(O)[C@]3(O)C(=O)C(C(N)=O)=C(O)[C@@H](N(C)C)[C@@H]3[C@@H](O)[C@@H]21 | checkerboard | ATCC 27853 | with: magainin II | FIC index | 1.5 |
| NS(=O)(=O)c1ccc(NC2=NC(=O)/C(=C\c3ccc([N+](=O)[O-])cc3)S2)cc1 | microbial growth | ATCC10145 | 50 µg/mL, 24 h | inhibition | 73.4% |

A few entries again:
| Molecule | test | test system | setting | measurement | result |
| --- | --- | --- | --- | --- | --- |
| O=C(Nc1ccc(F)cc1)c1ccccc1O | microbial growth, broth dilution | ATCC27853 |  | MIC | > 64 mg/L |
| Polymyxin B |  | PAO1 | 32 µg/mL, 24 h, 37 °C | biofilm dispersal | 100% |
